Measured values collected from several papers.
A part holds a random share of what one study measured.

Study 1
Target: Fragile X messenger ribonucleoprotein 1, C-terminal low-complexity region (Fmr1, Mus musculus, UniProt P35922)
Method: RNA Bind-n-Seq
Form: RNA
Sample: in vitro
Tested at: 200 nM
Setting: whole 134-nt RNA, ends assumed
With: 150 mM LiCl
Baseline: input library
Direction: higher = stronger binding
Quantity: log2 enrichment
All molecules: 7-deaza-guanosine replaces G
Shared flanks, not repeated: GGGAGUUCUACAGUCCGACGAUC … UGGAAUUCUCGGGUGUCAAGG
UCAAGUCCUGUGCUACACAUCGUAUGUACCGAAUCGGAGGAAAAAAAGGUUUGGAAAGUAUUAUGUUACGCCGUUCGGAUCUGCACUUCC: -1.99
UCAAGUCCUGUGCUACACAUCGUAUGUACCGAAUCGGGGCCGGCCGGGGCCGGGAAAGUAUUAUGUUACGCCGUUCGGAUCUGCACUUCC: 0.00651
AAGUCCUGUGCUACACAUCGUAUGUACCGAAUCGGGGAGGGGAAAGGGGAAAGGGGAAAGUAUUAUGUUACGCCGUUCGGAUCUGCACUU: 0.928
UGGCCCUGGUGGCAUGCGGGGAGGAAGAGGUGGCCUCAUGGAUCGUGGUGGUCCCGGUGGAAUGUUCAGAGGUGGCCGUGGUGGAGACCG: -0.69
AGUCCUGUGCUACACAUCGUAUGUACCGAAUCGGUUUUUGGUUUUUGGGGUUUUUGGGAAAGUAUUAUGUUACGCCGUUCGGAUCUGCAC: -1.26
GUCCUGUGCUACACAUCGUAUGUACCGAAUCGGGGUUUGGGGUUUUUUUGGGGAGGGGAAAGUAUUAUGUUACGCCGUUCGGAUCUGCAC: 0.455
UGGCCCUGGUGGCAUGCGGGGAGGAAGAGGUGGCCUCAUGCAUCGUGGUGGUCCCGGUGGAAUGUUCAGAGGUGGCCGUGGUGGAGACAG: -0.421
GUCCUGUGCUACACAUCGUAUGUACCGAAUCGGGGUUUGGGGAAAAAGGGGUUUGGGGAAAGUAUUAUGUUACGCCGUUCGGAUCUGCAC: -1.14
UCAAGUCCUGUGCUACACAUCGUAUGUACCGAAUCGGGAGGGAAAGGGAAAGGGAAAGUAUUAUGUUACGCCGUUCGGAUCUGCACUUCC: -0.472
GUGCUACACAUCGUAUGUACCGAAUCGGGGUUUUUUUGGGGAAAAAAAGGGGUUUUUUUGGGGAAAGUAUUAUGUUACGCCGUUCGGAUC: -2.61
CACAGACAACACGCACCCACACAGACAGAGAGGGAAGGGGUUGGGAUGGGGACAGGGUGCACAGCAGGGCGGGGUAGGACCCCAGCCCCU: 0.567

Study 2
Target: RING finger protein unkempt homolog, zinc fingers 1-6, GST-SBP tag (UNK, Homo sapiens, UniProt Q9C0B0, residues 30-357)
Method: RNA Bind-n-Seq
Form: RNA
Sample: in vitro
Tested at: not given
Setting: RNA with constant flanks, human and mouse sites, ends assumed
Baseline: input RNA pool
Direction: higher = stronger binding
Quantity: bound/input enrichment
Shared flanks, not repeated: GGGAGUUCUACAGUCCGACGAUC … CAACAGAGGAUUGAGCAUCA
Target sequence (chain): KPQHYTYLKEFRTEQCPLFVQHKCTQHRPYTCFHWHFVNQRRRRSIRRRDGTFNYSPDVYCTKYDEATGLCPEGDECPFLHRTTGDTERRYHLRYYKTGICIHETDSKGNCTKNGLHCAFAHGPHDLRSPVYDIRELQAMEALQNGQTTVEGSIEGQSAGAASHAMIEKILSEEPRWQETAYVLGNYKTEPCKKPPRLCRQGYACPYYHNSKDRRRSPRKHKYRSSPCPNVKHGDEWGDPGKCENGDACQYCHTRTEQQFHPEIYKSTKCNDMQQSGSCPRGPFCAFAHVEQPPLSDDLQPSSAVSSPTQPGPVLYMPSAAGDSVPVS
GUGACUAACUUGUUGCAGUUGCCUCAGUACUUUGAUUUGGAAAUAUAUACCACUGGACGAUUAGAAAAGCAUUUGGAUGCCUUAUUGCGACAGAUCCGGAAUAUUGUAGAGAAGCACACA: 0.848 ratio
GGCACUGACCUGCCAUGCCUCGCCUGGAGGCUCAGCUGUGGGCAUCCCUCCAUGGGGUUCAUAGAAAUAAGUGCAAUUUCUACACCCCCGAAACAAUUCAAAGGGAAGCAGCAUUUCUUG: 0.143 ratio
GAGUUCCGAUCUGGAAAGGCUCCUAUCCUCAUUGCCACGGAUGUAGCCUCCCGUGGGCUAGAUGUGGAAGAUGUCAAGUUUGUCAUCAACUACGAUUAUCCAAACAGCUCAGAGGAUUAU: 0.0983 ratio
AUUUUUGGAAAGGUUCAAGGGGUGUUUUUCCGCAAGUACACUCAGGCUGAGGGUAAAAAGCUAGGUUUGGUGGGCUGGGUUCAGAACACCGACCGGGGCACCGUGCAAGGGCAACUGCAG: 0.312 ratio
GAGGUAGAUCAAGAGCUCGUUGAACUACUAGUGAAAGAAACGGAAGCAAGAUUUCCAGAUGUAGCAAAUGGGUUUAUUGAGGAAAUAAUUCAUUUUAAGAAUUAUUAUGAUCUGAAUGUA: 0.593 ratio
GGCACAAUUGGAUAUGGCCUUGGCUCUUCAAGACCAAAGGAUGCUCUUAGAAUCCCUCAAAGUAGCCACCAUGAUGUCAAAAGCAACUGAUAAAGUAUCCAAACCUAGAGAACAAAUCUC: 0.768 ratio
GGUCAUUCAUACAUCACAUUUUAAAUUGGGGACUGUGUGUGCUGGUGUGUGUGUGAGUUCUACGUUUCUACCAUAUGUGAUCAGUUUAAUAGUAACUUUAUUUAUUUAAAAAAAAGAAAC: 4.55 ratio
CAUGACAGCAACACUGAUAUGUUUCAGAUUGGUCGGUCAACUGAAAGUCCUAUUGAUUUUGUAGUAACUGACACCGUUCCUGGAAGUCAGAGUAAUUCCGACACGCAGUCAGUACAAAGC: 0.0745 ratio
UGUUUGAACAGCAAAGAAGGACAUUUGCUACGUACGGCUAUGCACUGGACCCUUCGUUAGAUAAUCAUCAGGUGUCUGCUAAGUAUAUUGGCUCUGUGGAAGAAGCGGAGAAGAACCAAG: 0.152 ratio
AGCAUGGUUCGGCAUUCUUCAUCUCCAUAUGUAGUAUAUCCUUCGGAUAAGCCUUUCCUUAAUAGUGAUCUACGACGCUCCCCAAGUAAGCCUACACUUGCCUAUCCAGAAAGCAACAGC: 0.302 ratio
UUUCAAAGAAACAGCUGUGCUAAUGUCUUUGGUUUCCCGAUGAGUGUACACUACUGUAUAAUUUAUGUUUACCAUAUGAGUCUUGAAACACUACAGAUAUUUUGAAUAUCAGUCAUGAUG: 0.0992 ratio

Study 3
Target: Histone acetyltransferase KAT6A, both winged helices, GST fusion (KAT6A, Homo sapiens, UniProt Q92794, residues 1-181)
Method: protein binding microarray
Form: double-stranded DNA, one strand shown
Sample: in vitro
Tested at: not given
Setting: 8-mer, flanks averaged, mean of 2 arrays, mostly near background
Baseline: not given
Direction: higher = stronger binding
Quantity: E-score
Construct (chain): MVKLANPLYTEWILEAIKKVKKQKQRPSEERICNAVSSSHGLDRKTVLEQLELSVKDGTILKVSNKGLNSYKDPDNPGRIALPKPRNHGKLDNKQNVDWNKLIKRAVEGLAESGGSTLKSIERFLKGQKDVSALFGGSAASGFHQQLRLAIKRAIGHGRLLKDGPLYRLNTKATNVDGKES
CCAAGCGG: 0.158
AAGACTCA: -0.0854
CAAAACTA: -0.143
ATTCGGCG: 0.245
AAAAGATC: -0.0875
ATTGGGGG: -0.177
TATTCGCA: -0.0403
AAGATGGG: -0.0751
CGATAATA: -0.0379
CAGTTGCG: 0.0476
AACCTGTC: -0.0446
ACAGCTTA: -0.051
GAATGTGC: 0.166
AAGGTGGG: -0.226
CGTCTAAG: 0.0775
TCAGGGGA: -0.22
CCGAAGAG: 0.0804
GTAGTACA: -0.112

Study 4
Target: Phosphate system positive regulatory protein PHO4, full length, GST-tagged (PHO4, Saccharomyces cerevisiae, UniProt P07270, residues 1-312)
Method: competition protein-binding microarray
Form: double-stranded DNA, one strand shown
Sample: in vitro
Tested at: 2 µM
Setting: whole 60-bp probe, lowest competitor level
With: Cbf1 competitor, 0.05 µM
Direction: higher = stronger binding
Quantity: fluorescence intensity
Shared flanks, not repeated: … GTCTTGATTCGCTTGACGCTGCTG
Target sequence (chain): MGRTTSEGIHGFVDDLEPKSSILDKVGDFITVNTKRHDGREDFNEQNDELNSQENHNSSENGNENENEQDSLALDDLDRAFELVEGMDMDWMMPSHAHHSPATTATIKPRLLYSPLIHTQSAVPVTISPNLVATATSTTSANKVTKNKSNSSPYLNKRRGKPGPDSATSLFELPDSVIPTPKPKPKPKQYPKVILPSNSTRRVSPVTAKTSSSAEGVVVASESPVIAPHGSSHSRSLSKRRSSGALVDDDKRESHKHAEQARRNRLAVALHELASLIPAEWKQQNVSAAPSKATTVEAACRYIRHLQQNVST
CGACCACATATATGGAACGTGGTCGAAATACAAAGA: 13300 a.u.
TAGCATCATTTTCGTCACGTGCAAAATCTGCCAGTA: 15300 a.u.
AAAGCGGTAATTTTTCACGTGCTGTCAAATATCTAT: 16200 a.u.
GTGTGTATACAAAGAAGAGAGGTGTTAGACCAGTAT: 5400 a.u.
GCATTTGGTGAGATACACGTGCCAGTTGATAAGTAC: 19200 a.u.
AAATTACTAAGTTGGTACGTGGGTGACGCCGTATGA: 8540 a.u.
CGGGGTTAAGTTTGATCAGTGGGTGGCTTGCAGCAG: 4230 a.u.
GCCATTGGATACCGTCACGTGGGTAATGGTAATCTA: 18200 a.u.
CTGAATTCTTTAAAGAGTGTGACAGTGTCTTTTCCG: 4290 a.u.
AAGGTCTATGTTCTTCACGTGATGGAGAGGACTATA: 12600 a.u.
ACCACCAAAACCGACCACCGGCGAGCGGATATGCGG: 3650 a.u.
CGGGGTTAAGTTTTTCACGTGGCCTGCTTGCAGCAG: 13100 a.u.
CTTTCCCGATCTTGCAAGGTGGGTGTAGCACATTTG: 4740 a.u.
CAGCATTGCTACAGACACGTGAGTAATGCATTGTGT: 14900 a.u.
TGCGCAACAACTTGTCACCGAACTTTATGTCTAGAA: 2900 a.u.
CGTCCTAGTGATTTTCACGTGTGGTCCATGAGGAAG: 12000 a.u.
TCAAAATTGAACGGCCACGTTGAGGGACCGTTGTCA: 11200 a.u.
AAATTACTAAGTTTTCACGTGATATACCCCGTATGA: 11200 a.u.
CCACAAGGAATTTGGAACGTGCCGACGTTACTATTG: 15100 a.u.

For quick reference, copied from above (study 4):
CTGAATTCTTTAAAGAGTGTGACAGTGTCTTTTCCG: 4290 a.u.
GCCATTGGATACCGTCACGTGGGTAATGGTAATCTA: 18200 a.u.
GCATTTGGTGAGATACACGTGCCAGTTGATAAGTAC: 19200 a.u.
TCAAAATTGAACGGCCACGTTGAGGGACCGTTGTCA: 11200 a.u.
